Results pooled from the literature.
Every numbered part comes from another study and shows a few of its results, in no order.

Study 1 — method: protein binding microarray; form: double-stranded DNA, one strand shown; medium: in vitro; tested at: not given; baseline: not given; direction: higher = stronger binding
Target: Histone acetyltransferase KAT6A, winged helix 2, GST fusion (KAT6A, Homo sapiens, UniProt Q92794, residues 85-181)
Notes: 8-mer, flanks averaged, mean of 2 arrays, mostly near background
Residues (chain): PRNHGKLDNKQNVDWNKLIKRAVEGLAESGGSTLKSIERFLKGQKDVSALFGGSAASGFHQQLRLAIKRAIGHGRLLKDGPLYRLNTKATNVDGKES
`CTCAGGAG` has an E-score of 0.0166.
With `CCCAAGAC` the E-score was -0.0047.
`ATCGTCGA` gave an E-score of 0.0367.
`CCACGCGC` has an E-score of -0.00781.
`CAGACATA` gave an E-score of -0.12.
With `ATGGGCCG` the E-score was -0.0762.
For `ACATCTAT`, the E-score was -0.012.
`CTAACATA` has an E-score of -0.137.
With `CTCCGACC` the E-score was 0.0207.
The E-score of `CTCTAAGC` is reported as 0.0761.
`CGGGCATC` gave an E-score of -0.0241.
With `GGTTGCGA` the E-score was 0.267.
`GCACCGAA` has an E-score of 0.114.
For `GGGGGTTA`, the E-score was -0.288.
With `AACTCGGC` the E-score was 0.0748.
The E-score of `CCTACACC` is reported as -0.14.
`TATCAGGA` has an E-score of 0.15.
The E-score of `AACGCTAG` is reported as -0.0539.
The E-score of `CGGAAATC` is reported as 0.0814.

Study 2 — method: RNA Bind-n-Seq; form: RNA; medium: in vitro; tested at: 200 nM; notes: whole 134-nt RNA, ends assumed; with: 150 mM KCl; baseline: input library; direction: higher = stronger binding
Target: Fragile X messenger ribonucleoprotein 1, C-terminal low-complexity region (Fmr1, Mus musculus, UniProt P35922)
For `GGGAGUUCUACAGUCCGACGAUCGCAGGAAGUAAAAACAAAUGGAAAUGCUUCGGAUAGUGGCAGGGGUGGGGGUUGCUCAGGAAAGGGUGGGAUGGGAGUGGGUAAAGAGUUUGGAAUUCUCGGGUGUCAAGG`, the log2 enrichment was 0.402.
For `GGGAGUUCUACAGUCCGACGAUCGCAGGAAGUAAAAACAAAUGGAAAUGCUUCGGAUAGUGGCAGGGGUGGGGGGUGCUAAGGAAAGGGUGGGAUGGGAGUGGGUAAAGAGUUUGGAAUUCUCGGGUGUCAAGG`, the log2 enrichment was 0.295.
The log2 enrichment of `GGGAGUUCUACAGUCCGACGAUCUGGCCCUGGUGGCAUGCGGGGAGGAAGAGGUGGCAUCAUGGAUCGUGGUGGUCCCGGUGGAAUGUUCAGAGGUGGCCGUGGUGGAGACAGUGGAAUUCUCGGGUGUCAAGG` is reported as 0.816.
For `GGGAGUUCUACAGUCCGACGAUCCAAGUCCUGUGCUACACAUCGUAUGUACCGAAUCGGGUUUUUUUGGGAGGGAGGGAAAGUAUUAUGUUACGCCGUUCGGAUCUGCACUUCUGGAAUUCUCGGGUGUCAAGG`, the log2 enrichment was 0.995.
`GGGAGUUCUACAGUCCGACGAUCCUGUGCUACACAUCGUAUGUACCGAAUCGGAAAAAAAGGGGAAAAAAAGGGGAAAAAAAGGGAAAGUAUUAUGUUACGCCGUUCGGAUCUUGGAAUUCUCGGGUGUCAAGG` has a log2 enrichment of -0.374.
With `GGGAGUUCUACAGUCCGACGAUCCAAGUCCUGUGCUACACAUCGUAUGUACCGAAUCGGGUGGGAAAAAGGGUUUGGGAAAGUAUUAUGUUACGCCGUUCGGAUCUGCACUUCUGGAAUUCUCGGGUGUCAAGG` the log2 enrichment was 1.06.
`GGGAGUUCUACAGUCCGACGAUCCAAGUCCUGUGCUACACAUCGUAUGUACCGAAUCGGGGAGGGGAAAGGGGAGGGGAAAGUAUUAUGUUACGCCGUUCGGAUCUGCACUUCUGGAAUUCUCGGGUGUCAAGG` has a log2 enrichment of 1.15.
The log2 enrichment of `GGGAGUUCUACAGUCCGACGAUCCUGUGCUACACAUCGUAUGUACCGAAUCGGGGAAAAAAAGGGGUUUGGGGAAAAAAAGGGGAAAGUAUUAUGUUACGCCGUUCGGAUCUGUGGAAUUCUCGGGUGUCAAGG` is reported as -0.498.
With `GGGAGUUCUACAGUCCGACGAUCGCAGGAAGUAAAAACAAAUGGAAAUGCUUCGGAUAGUGGCAGGGGUGGGGGUUGCUAAGGAAAGAAAGGGAUGGGAGUGGGUAAAGAGUUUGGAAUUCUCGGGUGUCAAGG` the log2 enrichment was 0.0259.

Study 3 — method: RNA Bind-n-Seq; form: RNA; medium: in vitro; tested at: not given; baseline: input RNA pool; direction: higher = stronger binding
Target: RING finger protein unkempt homolog, zinc fingers 1-6, GST-SBP tag (UNK, Homo sapiens, UniProt Q9C0B0, residues 30-357)
UniProt Q9C0B0, sequence (30-357, looked up): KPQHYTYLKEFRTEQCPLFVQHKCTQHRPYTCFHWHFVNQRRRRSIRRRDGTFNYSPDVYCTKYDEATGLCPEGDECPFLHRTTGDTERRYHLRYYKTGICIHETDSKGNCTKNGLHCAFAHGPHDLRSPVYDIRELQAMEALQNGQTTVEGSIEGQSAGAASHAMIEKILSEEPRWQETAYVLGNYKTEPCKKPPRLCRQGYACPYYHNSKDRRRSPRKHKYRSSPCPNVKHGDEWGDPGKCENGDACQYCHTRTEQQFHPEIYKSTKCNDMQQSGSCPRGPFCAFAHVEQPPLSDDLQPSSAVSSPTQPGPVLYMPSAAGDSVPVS
Notes: RNA with constant flanks, human and mouse sites, ends assumed
`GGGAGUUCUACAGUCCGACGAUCUCUUUUUUUGCUGGGGAUAAAAACGAAGCACAUAAACUAAAGGAGGACUUCCGGCUACACUUUAGGAACAUUUCAAGAAUCAUGGACUGUGUUGGCUGCUUCAAGUGCCGCCUGUGGGGCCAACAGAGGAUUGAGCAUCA` gave a bound/input enrichment of 1.5 ratio.
The bound/input enrichment of `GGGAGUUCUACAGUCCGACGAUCUAACUAAGUGGGCUGUUCAGAAGCUUAGAGGUCAUUUUUUGUAAUUUUCUUUUUAAUUACUUUAGAGAGCUAGGGAUGCAAAUGUUUUCAGUUAGAAAGCCUUUAUUUACUUUUGGAAAUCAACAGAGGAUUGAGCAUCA` is reported as 2.47 ratio.
The bound/input enrichment of `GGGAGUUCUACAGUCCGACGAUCGAAGAAGAGUGCAGAGCUCGGAUCCGUUACGCACAAGAGCACGACAUCACUAAUUUCUAUAUGCUCACGCUAGAUAAAGAUCGAAUCAUUGAUGCUGGUCCUAAAGGGAACUACGCACGCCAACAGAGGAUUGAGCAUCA` is reported as 0.282 ratio.
`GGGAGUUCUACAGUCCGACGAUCAUGCAUUCACUACUCACGCACUAAAGUUUUGCAGUAAGAGAACUUGAGAGACAAAGUAUUAUUUACUAAAACCCAGGUAAUUGUGGAGACCACAGAACACAUACCUUGAAGGGUCUAAGACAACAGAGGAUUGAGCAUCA` has a bound/input enrichment of 0.389 ratio.
For `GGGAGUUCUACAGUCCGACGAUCAUCCGGGAGAAGCUGGGCUCGGGUGCCUUCUCUGAGGUGAUGCUGGCCCAGGAAAGGGGCUCUGCUCAUCUUGUGGCCCUCAAGUGCAUUCCCAAGAAAGCACUUCGGGGCAAGGAGGCCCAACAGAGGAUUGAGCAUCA`, the bound/input enrichment was 0.321 ratio.
The bound/input enrichment of `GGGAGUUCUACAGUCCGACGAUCCUCUCUCCAUACCAUCAGUUUCUCAGUUCCAGAAGUUAUACCUUUAUUUUGAGCUGUGUAUAGGUAGAAUAAAAAAUUCCUUUCAUAUCGUUAUUGUACAAAAAGUAAAGAGUAUCCUAACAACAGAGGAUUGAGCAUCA` is reported as 0.848 ratio.
With `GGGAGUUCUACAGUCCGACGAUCAUUUAAAAUGUAGUUAGUUAUAUUUAAUGACCUCAUUCCUAAGUUCCUUUUUCGUUAAUGUAGCUUUCAUUUCUGUUAUUGCUGUUUGAAUAAUAUGAUUAAAUAGAAGGUUUGUGCCAGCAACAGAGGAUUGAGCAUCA` the bound/input enrichment was 11.9 ratio.
The bound/input enrichment of `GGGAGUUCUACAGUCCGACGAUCCUAACUCAAAUUAUGCAUGCAUUGAGUUCUUGUGUGCUUUUUCUGUUCUAAAAUUAAUGGGCUUUAUGGGUUUUGUUUUUGUAUGUUUUUAUGUCUGUUAUAUUUUGAGGUAGGGGAUUGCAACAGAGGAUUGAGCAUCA` is reported as 4.2 ratio.

Study 4 — method: protein-binding microarray; form: double-stranded DNA, one strand shown; medium: in vitro; tested at: 2200 nM top; notes: 60-bp whole probe; with: salmon DNA 0.4 mg/ml; baseline: random background probes; direction: higher = stronger binding; shared flanks, not repeated: GCCTAGCAC … GTCTTGATTCGCTTGACGCTGCTG
Target: Interferon regulatory factor 7, full length, phosphomimetic (IRF7, Homo sapiens, UniProt Q92985, residues 1-503, S471D/S472D/S475D/S476D/S477D/S483D/S484D/S487D)
Construct (chain): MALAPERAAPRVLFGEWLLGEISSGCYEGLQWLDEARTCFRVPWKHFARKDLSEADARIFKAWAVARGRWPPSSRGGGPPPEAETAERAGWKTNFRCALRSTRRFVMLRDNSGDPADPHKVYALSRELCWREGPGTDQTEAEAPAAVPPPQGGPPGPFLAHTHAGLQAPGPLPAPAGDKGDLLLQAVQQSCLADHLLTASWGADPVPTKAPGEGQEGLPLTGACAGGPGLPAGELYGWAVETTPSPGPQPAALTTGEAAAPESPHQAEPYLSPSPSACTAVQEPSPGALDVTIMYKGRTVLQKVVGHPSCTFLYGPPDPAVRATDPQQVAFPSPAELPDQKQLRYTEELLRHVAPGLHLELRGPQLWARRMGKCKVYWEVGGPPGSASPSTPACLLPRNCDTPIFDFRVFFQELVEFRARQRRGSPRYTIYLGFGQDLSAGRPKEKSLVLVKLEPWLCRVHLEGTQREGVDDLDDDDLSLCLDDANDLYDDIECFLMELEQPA
`TTAGCTTTCCTTATCCTTTAGTGCTAG`: “fitted relative affinity” 2.66 z-score.
`CTTTTATTAGTGACTCAGCACGTGCTA`: “fitted relative affinity” 0.364 z-score.
Under “fitted relative affinity”, `GACGGTATCGAGTATCGGGACGTGCTA` is recorded as 0.0538 z-score.
For `GACGAACTGGGGTATAGAGACGTGCTA`, “fitted relative affinity” read 0.2 z-score.
`CTAGATCTCAGTATCGATTAGTGCTAG` — result for “fitted relative affinity”: 0.487 z-score.
For `TTAGGTTTCGATTCCGGTTAGTGCTAG`, “fitted relative affinity” read 9.06 z-score.
`TTACGTCTCGGTTTCGGTTAGTGCTAG`: “fitted relative affinity” 7.59 z-score.
For `TTAGATATCGGGTGTCGATTAGTGCTA`, “fitted relative affinity” read 0.0854 z-score.
Under “fitted relative affinity”, `TCATTATTAGTGACTCAGACTGTGCTA` is recorded as 0.318 z-score.
Under “fitted relative affinity”, `TTAGGACTGCTGCTGCTTTAGTGCTAG` is recorded as -0.46 z-score.
`TTAGGTTTCGACACGGGGTTAGTGCTA` — result for “fitted relative affinity”: 2.79 z-score.
`TTAGGTTTAGGTCTCGGTTAGTGCTAG`: “fitted relative affinity” 0.619 z-score.
`CGGGGGTGGGGAGAGCCCCTGTGCTAG` — result for “fitted relative affinity”: 0.676 z-score.
For `TTAGGACTGGGTATCGGGTAGTGCTAG`, “fitted relative affinity” read -0.635 z-score.
`TTAGAACTGAGTCTCGACTAGTGCTAG`: “fitted relative affinity” -0.55 z-score.
`GACGGACGGGGGTATCGGGACGTGCTA`: “fitted relative affinity” 0.457 z-score.
`TCAAATTCCTGAAATCTCACTGTGCTA`: “fitted relative affinity” -0.153 z-score.
`GACGGTATCGTGTATCGGGACGTGCTA` — result for “fitted relative affinity”: -0.000889 z-score.
For `TTAGGTTTCGGGTAACGGTTAGTGCTA`, “fitted relative affinity” read 5.13 z-score.

For quick reference, copied from above (study 4):
`GACGGTATCGTGTATCGGGACGTGCTA` — result for “fitted relative affinity”: -0.000889 z-score.
Under “fitted relative affinity”, `TTAGGACTGCTGCTGCTTTAGTGCTAG` is recorded as -0.46 z-score.
`TTACGTCTCGGTTTCGGTTAGTGCTAG`: “fitted relative affinity” 7.59 z-score.
`TTAGGTTTCGACACGGGGTTAGTGCTA` — result for “fitted relative affinity”: 2.79 z-score.
`CGGGGGTGGGGAGAGCCCCTGTGCTAG` — result for “fitted relative affinity”: 0.676 z-score.
For `TTAGGACTGGGTATCGGGTAGTGCTAG`, “fitted relative affinity” read -0.635 z-score.
`CTAGATCTCAGTATCGATTAGTGCTAG` — result for “fitted relative affinity”: 0.487 z-score.
Under “fitted relative affinity”, `GACGGTATCGAGTATCGGGACGTGCTA` is recorded as 0.0538 z-score.
